Measurements pooled from the literature.
Numbered parts are unrelated; each lists some results of a single study.

Set 1
Target: RNA binding protein fox-1 homolog 2, RRM domain, GST-SBP tag (RBFOX2, Homo sapiens, UniProt O43251-10, residues 100-194)
Method: RNA Bind-n-Seq
Form: RNA
Medium: in vitro
Concentration: 365 nM
Setting: natural RNA segment, single round, ends assumed
Baseline: no-protein control
Direction: higher = stronger binding
Measurement: RBNS enrichment (R)
Residues (chain): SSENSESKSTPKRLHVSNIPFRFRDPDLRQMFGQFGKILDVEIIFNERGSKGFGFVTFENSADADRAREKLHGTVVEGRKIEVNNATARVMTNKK
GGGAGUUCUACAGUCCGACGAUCGAAUGAACCAGUCAGUGGAAAACUGCUGAGGUGGGACAGCUGGGAGCCAGGGAGCCGAAGCAGUGCUUCAGGGGGUACUGUCACUAAGCCCUCAAGAUACCCUUGUCCCUUGGAAUUCUCGGGUGCCAA: 0.609
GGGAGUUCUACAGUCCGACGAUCUCGUCGUCCUCCUGCCCACCCGCUGACAUUAUUUUUAUAUAGCUAAAGAGGUCAACAGCACGGGCAGGGAGCCAAGGGGCUGGGUGCUCAGACUCUUAACAAUAUCCCAAUGGAAUUCUCGGGUGCCAA: 0.412
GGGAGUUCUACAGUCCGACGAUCAAAUAUUAGACACAAUCGUUCCCAUUCCUGACUCUUCAAUGGAAAAGGAAGGUACAGAUGUUUACAGUGGUGCCCCAGGUGACUCGUUCUCACCACAACAAAAGCAACUAUGGAAUUCUCGGGUGCCAA: 0.292
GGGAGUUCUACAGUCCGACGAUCUUAAAAUUAAAACUUCAGAUAUUUGUGGAUUACAAUCCUCAUUUACUUCCAAUGUGACUAAAAAGAGAAAAAAAAUCACUGUGUCACUUUAAAGAAAAAUCUUCUAAGGGUGGAAUUCUCGGGUGCCAA: 0.357
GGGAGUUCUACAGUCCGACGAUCCAAUUAGUCCAUACAUCCAUAAGCCUGAUGAGUUGAAAUUGCAGUUUGAGAAGUGAAUUAACCUUACAUCCCUUUGUUCAGAUACCUUAAAAGUUACUUUAUUUAAAAGCUGGAAUUCUCGGGUGCCAA: 0.781
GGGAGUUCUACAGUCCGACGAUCUUAUUUUCAAAUAAAAAAUAGUUUGGCCACUUAACAAAUUUGAUUUAUAAAUCUUUCAAAUUAGUUCCUUUUUAGAAUUUACCAACAGGUUCAAAGCAUACUUUUCAUGAUGGAAUUCUCGGGUGCCAA: 1.4
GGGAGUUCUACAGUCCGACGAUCUGAUUUGUACUUACACUAAGUUUAGAUUAUCACAAAGAAGAACGUGCAUUCAGGCAGAUGCUGUCCCUUCAGAGGAAGCUACAGCAGUUGCUCCACUGAUGAAAAAUAUUUGGAAUUCUCGGGUGCCAA: 0.197
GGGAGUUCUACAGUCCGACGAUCGUGCACAUUAGCAAGUGUCCUCAUGCCCGCACCCGGUUUGUGUUGUAGAUCAACUAGCCAACGCCCUCAUUGCUUCAUUGUGUCAAAAAACCGAGAGCUUCACUAAAUGGUGGAAUUCUCGGGUGCCAA: 0.681

Set 2
Target: Prothrombin, mature alpha-thrombin (F2, Homo sapiens, UniProt P00734)
Method: aptamer microarray, sandwich
Form: DNA with 2'F-ANA
Medium: in vitro
Concentration: 200 nM
Setting: whole 15-mer aptamer, many near background
With: Cy3 exosite-II aptamer, 400 nM
Direction: higher = stronger binding
Measurement: mean fluorescence intensity
Strand: GGTTGGTGTGGTTGG
2'F-ANA at 2 3 4 8 9 11 12 13 14 15: 276 a.u.
2'F-ANA at 1 2 6 10 12: 66.4 a.u.
2'F-ANA at 5 9 10 11 13 15: 61.2 a.u.
2'F-ANA at 1 4 5 7 10 11 14: 49.1 a.u.
2'F-ANA at 1 7 8 13: 149 a.u.
2'F-ANA at 2 4 7 8 9 12 14 15: 154 a.u.
2'F-ANA at 1 5 6 9: 59 a.u.
2'F-ANA at 2 3 4 5 6 9 11 14: 45.4 a.u.
2'F-ANA at 2 7 9 10 11 12: 167 a.u.
2'F-ANA at 7 10 11 15: 178 a.u.
2'F-ANA at 4 6 7 10 11 14: 58.2 a.u.

Set 3
Target: RING finger protein unkempt homolog, zinc fingers 1-6, GST-SBP tag (UNK, Homo sapiens, UniProt Q9C0B0, residues 30-357)
Method: RNA Bind-n-Seq
Form: RNA
Medium: in vitro
Concentration: not given
Setting: RNA with constant flanks, human-mouse chimeric sites, ends assumed
Baseline: input RNA pool
Direction: higher = stronger binding
Measurement: bound/input enrichment
Residues (chain): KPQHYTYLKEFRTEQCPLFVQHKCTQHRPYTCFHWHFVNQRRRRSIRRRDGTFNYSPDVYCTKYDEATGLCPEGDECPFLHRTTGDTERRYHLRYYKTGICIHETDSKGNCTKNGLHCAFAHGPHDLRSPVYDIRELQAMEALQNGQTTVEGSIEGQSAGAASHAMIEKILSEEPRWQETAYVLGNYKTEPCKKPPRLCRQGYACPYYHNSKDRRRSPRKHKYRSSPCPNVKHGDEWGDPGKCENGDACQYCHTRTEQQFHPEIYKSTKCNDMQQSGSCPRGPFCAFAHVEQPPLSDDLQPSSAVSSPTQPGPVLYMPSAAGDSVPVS
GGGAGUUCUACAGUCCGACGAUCACUCUUGACUCUUUCCAUCCUCUUCCUUUCCCUCUUGAUAUUCAAGGCCAUGAAUCCCAAAAUAACAGUCUUAGUGGGAGGCUAGCAAACAGAGGUGGGUGCCAUCCACCCCAGUGUCUCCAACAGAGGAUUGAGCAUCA: 0.392 ratio
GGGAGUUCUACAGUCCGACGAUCUAAAUUAGGGCUGCCGUUUUCUGUUUCUCCCUGGGCUGCGGAAAGCCAGGCGGUUUUAUCUAGCUUAAACCAGGCUGCUGGUGUUCCCUCUUUUUUUCCACGAGGGUGUUUUUGGCUGCACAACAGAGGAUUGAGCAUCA: 0.85 ratio
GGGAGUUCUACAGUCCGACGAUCGGGGAGAAACCUUAUGAGUGUGUGCAGUGUGGGAAAUCCUACAGUCAAAGCUCAAAUCUCUUCAGACAUCAGAGACGACACAAUGCAGAAAAACUUUUGAAUGUUGUGAAGGUUUAAGAACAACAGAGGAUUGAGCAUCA: 0.126 ratio
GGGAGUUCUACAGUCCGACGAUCAGAGAAAUGAGAAAGAAUCUUACACAAGAUGAGAUGCAAAGAAUGUCUACUAGAGUCCUUUUAGCCACUCUUUCCAUUCCUAUUACUCCUGAGCGAACUGAUAUUGCUCGACUUUUGGAUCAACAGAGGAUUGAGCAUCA: 0.0915 ratio
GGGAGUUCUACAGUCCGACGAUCUUCCCAACCUCCCGCCUGCUUUUUGAACCGCUUUUUGGAAAGUUUUUGGCGUUUCUUUUCCUUCCCCAUACAAAGUGAUUACAGUUUCCCCCGCAAGGGUCUAUCGAAGGGCUUGACGGACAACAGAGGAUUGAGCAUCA: 0.465 ratio
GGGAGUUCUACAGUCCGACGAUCAAUGUGGAGUUGAGUUCCUUGGCCCGGCUUCCCAGCUUGAAUAAACUCCGGAAGUUGGAACUUAGUGAUAAUAUAAUUUCUGGAGGCUUGGAAGUCCUGGCAGAGAAAUGUCCAAAUCUUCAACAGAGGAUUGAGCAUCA: 5.13 ratio

Other studies, line by line
PhoQ, residues 284 288 289 292 302 303 AEGLLW  fold induction (PhoP, residues 12 14 15 18 19 IQFRS (Escherichia coli, UniProt P23836); Sort-seq, refers to: YFP reporter; E. coli; PhoQ-PhoP variant library, with: 10 µM Mg2+; baseline: high Mg2+ state, higher = stronger signaling): 17.8

For quick reference, copied from above (set 1):
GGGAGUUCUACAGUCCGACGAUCGUGCACAUUAGCAAGUGUCCUCAUGCCCGCACCCGGUUUGUGUUGUAGAUCAACUAGCCAACGCCCUCAUUGCUUCAUUGUGUCAAAAAACCGAGAGCUUCACUAAAUGGUGGAAUUCUCGGGUGCCAA: 0.681
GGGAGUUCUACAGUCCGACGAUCAAAUAUUAGACACAAUCGUUCCCAUUCCUGACUCUUCAAUGGAAAAGGAAGGUACAGAUGUUUACAGUGGUGCCCCAGGUGACUCGUUCUCACCACAACAAAAGCAACUAUGGAAUUCUCGGGUGCCAA: 0.292
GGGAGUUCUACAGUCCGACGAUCGAAUGAACCAGUCAGUGGAAAACUGCUGAGGUGGGACAGCUGGGAGCCAGGGAGCCGAAGCAGUGCUUCAGGGGGUACUGUCACUAAGCCCUCAAGAUACCCUUGUCCCUUGGAAUUCUCGGGUGCCAA: 0.609
